Assay results from different studies.
Parts stem from different laboratories: compare values within a part only. Changes are numbered by the printed parent chain.

Series 1 — target: CCNE1, cyclin fold, Cln2 fusion (human); technique: yeast growth competition, sequencing; sample: yeast; setting: weak parent motif; relative to: not given; reading: higher = stronger binding
Starting sequence: RB1 docking peptide (human); PKPLKKLRFDIEG
Variant | normalised enrichment score
PKPLKKLRFGIEG [D10G] | 1.78
PKPLKKLRFDSEG [I11S] | 0.472
PKPLKKVRFDIEG [L7V] | 0.599
PKPLAKARFDIEG [K5A L7A] | -0.0139
PKPLLKLRFDIEG [K5L] | -0.0787
PKPLKKLRFDIES [G13S] | 0.537
PKPLKKLRTDIEG [F9T] | 0.215
PKPLKKLRFDVEG [I11V] | 0.151
PKPLKKLRFDIEV [G13V] | 0.672
PKPLKKTRFDIEG [L7T] | 0.000478
PKFLKKLRFDIEG [P3F] | 0.135
PKPLKKLRFDIET [G13T] | -0.775
PEPLKKLRFDIEG [K2E] | 0.111
PKMLKKLRFDIEG [P3M] | 0.621
PKPLKKLRFDIER [G13R] | 0.816
PNPLKKLRFDIEG [K2N] | 0.0949
PKPLKKMRFDIEG [L7M] | 0.471
PKPLKKLRFDLEG [I11L] | 1.39
PKPQKKLRFDIEG [L4Q] | -0.0376

Series 2 — technique: protein-binding microarray; form: double-stranded DNA, one strand shown; sample: in vitro; concentration: 0.8 µM; setting: whole 60-bp probe, no competitor; reading: higher = stronger binding; shared flanks, not repeated: … GTCTTGATTCGCTTGACGCTGCTG
Target: Centromere-binding protein 1, full length, N-terminal tag (CBF1, Saccharomyces cerevisiae, UniProt P17106, residues 1-351)
Chain of UniProt P17106 (whole entry, looked up): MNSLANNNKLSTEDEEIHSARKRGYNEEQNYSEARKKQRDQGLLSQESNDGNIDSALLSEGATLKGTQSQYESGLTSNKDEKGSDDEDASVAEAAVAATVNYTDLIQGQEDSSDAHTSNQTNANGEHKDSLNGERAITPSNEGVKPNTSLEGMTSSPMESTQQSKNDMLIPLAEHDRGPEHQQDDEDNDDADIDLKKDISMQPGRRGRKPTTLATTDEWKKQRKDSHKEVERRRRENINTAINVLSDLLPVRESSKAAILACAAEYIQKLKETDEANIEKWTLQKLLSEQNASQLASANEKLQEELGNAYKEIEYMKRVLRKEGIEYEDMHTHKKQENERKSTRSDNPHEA
Sequence | fluorescence intensity
CCTAACTACTATAACGTGCCCGTATAGCTTCGTACA | 733 a.u.
GAAGCATCATGCGGGAACGTGCAGTAAAGCTCATAG | 673 a.u.
TGTACGAAGCTATTGACTGCGTATATAGTAGTTAGG | 511 a.u.
CTAAAACATACACATCACGTGACCACAAGAATGTTC | 43800 a.u.
GAATGTATCATTGCCCTCGTGTTAGATTGGTGATAG | 611 a.u.
GAACCCCTGAACAATCAGCTGAGGTCAGAGATCTAG | 514 a.u.
GAAGGGTCAGCAACTGACGTGACTCAGCCTGGCTAG | 632 a.u.
CTATAGATCACTTTGCACGCGGGCATTGAATGATTC | 620 a.u.
CTAAAAGGAAACAGGCGTGTGATAAGAGGCCAATTC | 558 a.u.
GAATTAAAGACTCACCACGTTCAACTTTGAATTTAG | 547 a.u.
CTATGTAGTAAAAAAATCGTGATGTATACAAACTTC | 609 a.u.
CTAATTGCACCCGTGCACGTCACACATAAGCTTTTC | 1050 a.u.
GAATCTCGAAAGGTCATCGTGTAAAAGTTCTACTAG | 527 a.u.
CTACCATGTTTCAGTCTCACATGGGTTTTTTGATTC | 702 a.u.
CCTAACTACTATAATGACGGTATATAGCTTCGTACA | 508 a.u.
CTAATCACATGCAAGCACATGAAGCTGGAACCATTC | 1810 a.u.
CTACGCGATGAAGGTGACTCAGCCAATCCGGGTTTC | 525 a.u.
GAACGTCCAAATATGCAGGTGTTTGGGTGCTATTAG | 551 a.u.
GAATCCAAGAGGGATCACATCACGATACTATTGTAG | 913 a.u.
CTATACATATACTGTCACGCGACATTTTCACCTTTC | 3060 a.u.
GAAATCTCATGGATCCTCGTGAGCAACATTTTCTAG | 657 a.u.
GAAAGTAACCTCAGGAACGTGACAACTACTTTTTAG | 1420 a.u.
GAAACCTGTGCTTTGAACGTGTCTCATTTCTGCTAG | 547 a.u.
CTAGAAGAACTTTTCCTGATGCTTGTATCAGAATTC | 488 a.u.
GAACTAATGTGAGTTCACGTTATAGAAGCTGGATAG | 769 a.u.

Series 3 — technique: RNA Bind-n-Seq; form: RNA; sample: in vitro; concentration: 200 nM; setting: whole 134-nt RNA, ends assumed; with: 150 mM KCl; relative to: input library; reading: higher = stronger binding
Target: Ras GTPase-activating protein-binding protein 1, full length (G3BP1, Homo sapiens, UniProt Q13283)
Chain of UniProt Q13283 (whole entry, looked up): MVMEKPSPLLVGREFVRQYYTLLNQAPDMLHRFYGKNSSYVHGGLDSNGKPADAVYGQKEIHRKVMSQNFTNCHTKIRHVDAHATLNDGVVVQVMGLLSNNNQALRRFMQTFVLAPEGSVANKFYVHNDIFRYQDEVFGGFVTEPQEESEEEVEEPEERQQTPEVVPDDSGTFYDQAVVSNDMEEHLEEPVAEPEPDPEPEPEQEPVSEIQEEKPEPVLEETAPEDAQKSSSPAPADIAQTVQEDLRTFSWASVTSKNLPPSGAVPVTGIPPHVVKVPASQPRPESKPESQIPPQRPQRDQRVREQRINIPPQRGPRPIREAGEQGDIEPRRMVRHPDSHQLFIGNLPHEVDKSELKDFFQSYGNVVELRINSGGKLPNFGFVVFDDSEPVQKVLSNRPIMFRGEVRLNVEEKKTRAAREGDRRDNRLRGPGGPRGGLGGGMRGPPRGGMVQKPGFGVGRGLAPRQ
Shared flanks, not repeated: GGGAGUUCUACAGUCCGACGAUC … UGGAAUUCUCGGGUGUCAAGG
Sequence | log2 enrichment
AAGUCCUGUGCUACACAUCGUAUGUACCGAAUCGGGUUUUUGGGAAAGGGUUUGGGAAAGUAUUAUGUUACGCCGUUCGGAUCUGCACUU | -0.0689
CACAGACAACACGCACCCACACAAACACAGAGGGAAGGGGUUGGGAUGGGGACAGGGUGCACAGCAGGGCGGGGUAGGACCCCAGCCCCU | 1.77
CACAGACAACACGCACCCACACAGACACAGAGGGAAGGGGUUGGGAUGGGGACAGGGUGCACAGCAGGAAAGGGUAGGACCCCAGCCCCU | 1.78
UCAAGGGUUAUACACGGAAAGCCGCUGCGCUGGAAGCGAUGAAGGACUACACCAAAGCCAUGGAUGUGUACCAGAAGGCGCUAGACCUGG | -0.68
UCCUCAAGUCCUGUGCUACACAUCGUAUGUACCGAAUCGGUGGGGUGGUGGGAAAGUAUUAUGUUACGCCGUUCGGAUCUGCACUUCCAG | 0.461
CCUCAAGUCCUGUGCUACACAUCGUAUGUACCGAAUCGGCGGGGCGGGGCGGGAAAGUAUUAUGUUACGCCGUUCGGAUCUGCACUUCCA | 1.1
CACAGACAACACGCACCCACACAGACACAGAGCGAAGGGGUUGGGAUGGGGACAGGGUGCACAGCAGGGCGGGGUAGGACCCCAGCCCCU | 1.93
ACCAUGCAGGUGGGCAUCAUUGGGAAGUGGGGCAAGGGGGGGAUAGGGAGGGGGGUAACACUUUGGGAACAGGUGGUCCCAGGUCGUUUC | 1.07
UCCUCAAGUCCUGUGCUACACAUCGUAUGUACCGAAUCGGUUUGGUGGAGGAAAGUAUUAUGUUACGCCGUUCGGAUCUGCACUUCCAGC | -0.631
UGGCCCUGGUGGCAUGCGGGGAGGAAGAGGUGGCCUCAUGGAUCGUGGUGGUCCCGGAGGAAUGUUCAGAGGUGGCCGUGGUGGAGACAG | 0.0694
UCAAGUCCUGUGCUACACAUCGUAUGUACCGAAUCGGUUUGGAAAAAAAGGUGGAAAGUAUUAUGUUACGCCGUUCGGAUCUGCACUUCC | -0.635
UAACUUUAGAGGAGGAUCUGAUGGAUAUGGCAGUGGACGUGGAUUUGGGGAUGGCUAUAAUGGGUAUGGAGGAGGACCUGGAGGUGGCGA | 0.409
CCUCAAGUCCUGUGCUACACAUCGUAUGUACCGAAUCGGGUGGGGUGGGGUGGAAAGUAUUAUGUUACGCCGUUCGGAUCUGCACUUCCA | 1.07
AAGUCCUGUGCUACACAUCGUAUGUACCGAAUCGGGUUUUUGGGUUUUUGGGUGGGAAAGUAUUAUGUUACGCCGUUCGGAUCUGCACUU | -0.11

Series 4 — technique: RNA Bind-n-Seq; form: RNA; sample: in vitro; concentration: 365 nM; relative to: no-protein control; reading: higher = stronger binding
Target: RNA binding protein fox-1 homolog 2, RRM domain, GST-SBP tag (RBFOX2, Homo sapiens, UniProt O43251-10, residues 100-194)
Setting: natural RNA segment, single round, ends assumed
Shared flanks, not repeated: GGGAGUUCUACAGUCCGACGAUC … UGGAAUUCUCGGGUGCCAA
Target sequence (chain): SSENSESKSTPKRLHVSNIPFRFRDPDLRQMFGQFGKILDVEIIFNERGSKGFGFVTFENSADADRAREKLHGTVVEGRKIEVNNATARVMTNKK
Sequence | RBNS enrichment (R)
ACCUCAGAAUUCUCAGGUAUGGAAACACUCAAGAGCUGCCUGGUAUGAAGCAAAGAGGAUCCUGGGCUAUUUAAAGCUCUGGUAACCGAGAAGAACUUGCCCCUGUUCUU | 3.89
CCUAAGGCUUUGUGGGUAAGAUUACUUGCCACCUGCUUACUCUUAUGAAAUAGUCCAGUGCUCAUAUUAUCACUUGUCUCGUCUCCAGCAAAUACGAGGGGGCUUCUGAA | 0.438
UGUUGUACAAAAUAGUAAUGAUAGCCAUGGAAGUUUUACCUUAUUCUGUGAGAAGUGUUCUUAAACUUAUUAAGUGUCUAAACUAAGGUUUAGUGCUUUUUUAAAGGAAA | 0.572
CCCUCUAUUACAAGAGUCCGCCUUGCCUGAGUCCUCCCUGCUGAGUAAAGCUACCCUCCCAGGUCCAGUUUGUGUCUUGUGUUUGGGCCCCGCAAGGAGCAGUGGCGUCA | 7.21
GACGAGCCCAUGUUUCUGCAUGGAUUUCCCAUGGAAGUCCUGUCCUGCUACAGAGGGGAAGAAAGUGUACCCUCCAAUGUGAUAAAUCUUCUGAUGCCCCCAGACUCUUG | 0.375
AUUCCCCUCCACCUCGGGAGGGGACAGGCUCCCACAUCCCAUCCCACCCUCCACACCCCAAAGAGAAAUCCCUUCAAAACAGUUUGGGGCCUGUAGCCAGGGUGGGAGGG | 0.313
AAUGUAAAUAUUUUCUUUCCAAGUUGUAAGUUUUCAUAUCAUGUGUUGUAAAGUUUUCCUAAACGAGGCUUUAACGUAAACACUGGUGACAUAAACCAUUCAUUGCUACC | 0.478
UUCUGAUCAGAUGAACAUCUGUCCAAGCCAAAAUUCUGCAGAGGGCAGGUGAGCUUUGCUUAUGUAGUUUGCUUUCACCAUAUAGACUGAGAGAAGAUUUCAGACUUCUU | 0.337
UCCACUUCACUCUGAGUGCUUUCAGGAUCUGGGGCUUCAAGACUCACUGCUUCAGUCAGCCUUCAUUAGCACCAAAGACUCCAUGAAGGUCGUCCCCCACACAAACAUAC | 0.369
UGUGCAGGUGCUGUGGCGGGAAGCACAAAGCGGCCGCGUGACUCAGUUUCCCUCCCUUCUCCCUCCAUCCGCAGCCACAGGGGAACUCGUCUCUUACAUACUCUCAUCUU | 0.62
CCUUCCGCAGCUCCUAGUCUCGUCCGUGACUUUCCGGUUGCCCUGGAUCUCAGAAUAUAUUCGUCCACCCCCUCGGCACCCCAUUACCCCGAGUCCCACCGUGUGUCCGU | 0.202
GUGUGGGUGUGGGUGCCAGCUCCAAGUUGGCUGAGCCUUUUUCCAGGUUCUACCCGGGCGCCUCUGUGUGUUCUACAGCACAGAGGACUUCGGGGAGAUUGAUUGGAUCA | 0.232

Excerpt of the above (series 1):
Variant | normalised enrichment score
PKPLKKLRFDVEG [I11V] | 0.151
PKPLKKVRFDIEG [L7V] | 0.599
PKPLKKLRFDIER [G13R] | 0.816
PKMLKKLRFDIEG [P3M] | 0.621
PKPLKKLRFDIET [G13T] | -0.775
PKPLKKLRFDLEG [I11L] | 1.39
